Assay results gathered from unrelated publications.
Each line is one published result; not all experiments were run side by side.

SMILES | species | sample | route | dose | time | setting | concentration
CC(C)(O)c1ccc(N2Cc3c(ccnc3-c3ccc(F)cc3OCC(F)(F)F)C2=O)cc1 | male C57BL/6 mouse | brain | oral | 100 mg/kg | 6 h | – | 7620 ng/g
Cc1c2ccnc(C(=O)N[C@H](C)CN(C)C)c2cc2c3cc(OCCCN4CCN(C)CC4)ccc3n(C)c12 | male C57BL/6 mouse | plasma | intraperitoneal | 10 mg/kg | 2 h | single dose | 1.93 µM
C=CC(=O)N1CC2C(=O)N(CCN(C)C)c3c(c4cc(Cl)c(-c5c(O)cccc5F)nc4n(-c4c(C)ccnc4C(C)C)c3=O)N2CC1C (stereo not drawn) | nude mouse | plasma | oral | 100 mg/kg | 8 h | – | 12.8 µM
Cc1ncsc1-c1ccc(CNC(=O)[C@@H]2C[C@@H](O)CN2C(=O)[C@@H](NC(=O)COCC(C)(COCCOCCOCCNC(=O)C[C@@H]2N=C(c3ccc(Cl)cc3)c3c(sc(C)c3C)-n3c(C)nnc32)COCCOCCOCCNC(=O)C[C@@H]2N=C(c3ccc(Cl)cc3)c3c(sc(C)c3C)-n3c(C)nnc32)C(C)(C)C)cc1 | male C57BL/6 mouse | plasma | intravenous | 5 mg/kg | 1 h | single dose | 5000 ng/mL
Cc1cc(C(=O)N[C@@H](CC(=O)NC(C)(C)C)C(=O)NCCNC(=O)c2cccc(-n3cccn3)c2)no1 | mouse | plasma | intravenous | 0.1 mg/kg | 5 min | – | 39.7 ng/mL
CC[C@H](C)/C=C/C=C/C=C/C(O)=C/C(=O)C(F)(F)F | female C57BL/6 mouse | plasma | oral | 25 mg/kg | 4 h | – | > 1 µM
CC(C)n1ncc2c(C(=O)NC[C@@H](C)N)cc(C3CC3)nc21 | female BALB/c mouse | plasma | intraperitoneal | 30 mg/kg | 1 h | – | 1510 ng/mL
Cc1cc(C(=O)N[C@@H](CC(=O)NC(C)(C)C)C(=O)NCCNC(=O)c2cc(-c3ccccc3)ccn2)no1 | mouse | plasma | intravenous | 0.1 mg/kg | 5 min | – | 60.4 ng/mL
[2H]C([2H])(N)C([2H])([2H])NC(=O)c1cc(C2CC2)nc2c1cnn2C(C)C | female BALB/c mouse | plasma | intraperitoneal | 50 mg/kg | 12 h | – | 66.3 ng/mL
O=C1CCC(N2Cc3cc(C(=O)O)c(F)cc3C2=O)C(=O)N1 (stereo not drawn) | male CD-1 mouse | plasma | intravenous | 1 mg/kg | 4.98 min | – | 1340 ng/mL
CC(C)n1ncc2c(C(=O)NCCN(C)C)cc(C3CC3)nc21 | female BALB/c mouse | plasma | intraperitoneal | 50 mg/kg | 30 min | – | 720 ng/mL
COc1cccc(C2CC(c3ccccc3Cl)Nc3nc(N)nn32)c1 (stereo not drawn) | male CD-1 mouse | brain | intraperitoneal | 20 mg/kg | 1 h | single dose | 11 µM

Excerpt of the above:
SMILES | species | sample | route | dose | time | setting | concentration
C=CC(=O)N1CC2C(=O)N(CCN(C)C)c3c(c4cc(Cl)c(-c5c(O)cccc5F)nc4n(-c4c(C)ccnc4C(C)C)c3=O)N2CC1C (stereo not drawn) | nude mouse | plasma | oral | 100 mg/kg | 8 h | – | 12.8 µM
